Measurements gathered from unrelated publications.
± gives the spread as reported.

With `CC1(C)S[C@@H]2[C@H](NC(=O)[C@H](N)c3ccccc3)C(=O)N2[C@H]1C(=O)O` the MIC was 2.5 ± 0.2 µg/mL (Lacticaseibacillus paracasei subsp. paracasei; broth microdilution; ATCC 27216, MRS medium; 24 h, 37 °C).
`Oc1c(I)cc(Cl)c2cccnc12` has an MIC of over 50 µM (Cryptococcus neoformans; H99 wild type; 48 h, 30 °C, SC medium, with: CuSO4 0.01 mM).
With `CC1(C)S[C@@H]2[C@H](NC(=O)[C@H](N)c3ccccc3)C(=O)N2[C@H]1C(=O)O` the MIC was 8 µg/mL (Streptococcus pneumoniae; broth microdilution; ATCC 49619).
The MIC of `CN(C)c1ccc(O)c2c1C[C@H]1C[C@H]3[C@H](N(C)C)C(O)=C(C(N)=O)C(=O)[C@@]3(O)C(O)=C1C2=O` is reported as 0.125 µg/mL (Streptococcus pneumoniae; 157E; 50% mouse serum).
`CCc1cc(=O)c2c(OCC(O)CN3CCC(C)CC3)c3ccoc3c(OC)c2o1` (centres unmarked) gave an MIC of over 256 µg/mL (Staphylococcus aureus; microbial growth, broth dilution; ATCC25; 19 h).
For `O=C(O)CN(CCN(CC(=O)O)CC(=O)O)CC(=O)O`, the MIC was over 100 µM (Cryptococcus neoformans; microbial growth, broth dilution; 48 h).
`O=C(COc1ccc(-c2nc3ccc(F)cc3[nH]2)cc1F)N1CCOCC1` gave an MIC of over 256 µg/mL (Enterococcus faecalis; microbial growth, broth dilution; ATCC29212).
`O=C(OOC(=O)c1ccccc1)c1ccccc1` — result for “maximal peptide depletion”: -107% (cysteine peptide Ac-RFAACAA-COOH; DPRA RapidFire-MS/MS; 24 h, pH 7.5, with: 5.0 µM cysteine peptide).
`Fc1cc(-c2nc3ccccc3[nH]2)ccc1OCc1cn(CCN2CCOCC2)nn1` has an MIC of over 256 µg/mL (Enterococcus faecalis; microbial growth, broth dilution; ATCC29212).
`Cc1ccc(S(=O)(=O)N2C(=O)CSC2c2cccc(Br)c2)cc1` (centres unmarked) has an MIC of 64 µg/mL (Streptococcus pneumoniae; broth microdilution; ATCC 49619).
`CCN(CC)CCOc1ccc(-c2nc3ccc(F)cc3[nH]2)cc1F` gave an MIC of over 256 µg/mL (Enterococcus faecalis; microbial growth, broth dilution; ATCC29212).
`Cc1ccc(S(=O)(=O)N2C(=O)CSC2c2ccc(Cl)cc2)cc1` (centres unmarked) has an MIC of 32 µg/mL (Streptococcus pneumoniae; broth microdilution; ATCC 49619).
`CCN(CC)C(=S)SSC(=S)N(CC)CC` gave an MIC of 25 µM (Cryptococcus neoformans; H99 wild type; 48 h, 30 °C, SC medium, no added copper).
For `Cc1ccc(S(=O)(=O)N2C(=O)CSC2c2ccc(O)cc2)cc1` (centres unmarked), the MIC was 32 µg/mL (Streptococcus pneumoniae; broth microdilution; ATCC 49619).
For `O=CCc1ccccc1`, IC50 read “inactive” (cysteine peptide Ac-RFAACAA-COOH; peptide depletion, DPRA RapidFire-MS/MS; 24 h, pH 7.5, room temperature, with: 5.0 µM cysteine peptide).
The MIC of `Fc1ccc2nc(-c3ccc(OCc4cn(CCN5CCOCC5)nn4)c(F)c3)[nH]c2c1` is reported as over 256 µg/mL (Enterococcus faecalis; microbial growth, broth dilution; ATCC29212).
`Cc1ccc(S(=O)(=O)N2C(=O)CSC2c2cccc([N+](=O)[O-])c2)cc1` (centres unmarked) has an MIC of 128 µg/mL (Streptococcus pneumoniae; broth microdilution; ATCC 49619).

A few entries again:
`Cc1ccc(S(=O)(=O)N2C(=O)CSC2c2cccc(Br)c2)cc1` (centres unmarked) has an MIC of 64 µg/mL (Streptococcus pneumoniae; broth microdilution; ATCC 49619).
`CCN(CC)CCOc1ccc(-c2nc3ccc(F)cc3[nH]2)cc1F` gave an MIC of over 256 µg/mL (Enterococcus faecalis; microbial growth, broth dilution; ATCC29212).
